Results from different studies.
Numbered parts are unrelated; each lists some results of a single study.

Sample 1 — observed: enzyme activity; action: inhibitor; concentration: 0.5 µM; baseline: control
Target: Death-associated protein kinase 3 (DAPK3, Homo sapiens, UniProt O43293)
Compound | remaining activity [%]
CN1CCN(c2ccc3nc(-c4c(N)c5c(F)cccc5[nH]c4=O)[nH]c3c2)CC1 | 109
COc1ccc2c(c1)c(C1=C(c3c[nH]c4ccccc34)C(=O)NC1=O)cn2CCCN(C)C | 75.5
O=C1Cc2c([nH]c3ccc(Br)cc23)-c2ccccc2N1 | 111
O=C1NC(=O)c2c1c1c3ccccc3[nH]c1c1[nH]c3cc(Br)ccc3c21 | 62.9
Cc1cc(Nc2cc(N3CCN(C)CC3)nc(Sc3ccc(NC(=O)C4CC4)cc3)n2)[nH]n1 | 109
O=C1Nc2ccc(Br)cc2/C1=C/c1cc2c([nH]1)CCCC2 | 92.8
O=C(c1cc2cc(O)ccc2[nH]1)c1cc2cc(O)ccc2[nH]1 | 104
c1ccc2c(-c3ccncc3)c[nH]c2c1 | 101
O=C1NC(=O)c2c1c1c3ccccc3[nH]c1n1cncc21 | 29.6

Sample 2 — Compound: C=CCc1ccc(O)c(-c2ccc(O)c(CC=C)c2)c1; observed: chloride current; technique: whole-cell voltage clamp
target | test | conditions | IC50 [µM]
Anoctamin-1 (ANO1, Homo sapiens, UniProt Q5XXA6, del476-501/R631K) | inhibitor | mutant R605K | 8.6
Anoctamin-1 (ANO1, Homo sapiens, UniProt Q5XXA6, del476-501/F803A) |  | membrane voltage 80 mV | 12.6
Anoctamin-1 (ANO1, Homo sapiens, UniProt Q5XXA6, del476-501/F646A) |  | membrane voltage 40 mV | 6.14
Anoctamin-1 (ANO1, Homo sapiens, UniProt Q5XXA6, del476-501/F803Y) | inhibitor | 60 mV holding voltage | 11.5
Anoctamin-1 (ANO1, Homo sapiens, UniProt Q5XXA6, del476-501/M544A) |  | membrane voltage 80 mV | 4.09
Anoctamin-1 (ANO1, Homo sapiens, UniProt Q5XXA6, del476-501/F807I) | inhibitor | F781I mutant at 20 mV | 6.4
Anoctamin-1 (ANO1, Homo sapiens, UniProt Q5XXA6, del476-501/L548A) |  | membrane voltage 60 mV | 5.81

Sample 3 — observed: cell-free assay; technique: competition with immobilised ligand; concentration: 1 µM
Structure (SMILES): CCS(=O)(=O)c1cc2cc(C[C@@](O)(CC(C)(C)c3ccc(F)cc3C(N)=O)C(F)(F)F)[nH]c2cn1
target | remaining binding
Phosphatidylinositol 4,5-bisphosphate 3-kinase catalytic subunit beta isoform (PIK3CB, Homo sapiens, UniProt P42338) | 87%
Protein kinase C epsilon type (PRKCE, Homo sapiens, UniProt Q02156) | 100%
eIF-2-alpha kinase GCN2, C-terminal kinase domain (EIF2AK4, Homo sapiens, UniProt Q9P2K8, S808G) | 94%
Serine/threonine-protein kinase NLK (NLK, Homo sapiens, UniProt Q9UBE8) | 100%
Phosphatidylinositol 4-kinase beta (PI4KB, Homo sapiens, UniProt Q9UBF8) | 100%
Ephrin type-A receptor 4 (EPHA4, Homo sapiens, UniProt P54764) | 95%
NT-3 growth factor receptor (NTRK3, Homo sapiens, UniProt Q16288) | 82%
Tyrosine-protein kinase JAK1, JH2 (JAK1, Homo sapiens, UniProt P23458) | 90%
Hormonally up-regulated neu tumor-associated kinase (HUNK, Homo sapiens, UniProt P57058) | 100%
Activated CDC42 kinase 1 (TNK2, Homo sapiens, UniProt Q07912) | 100%
Receptor-interacting serine/threonine-protein kinase 1 (RIPK1, Homo sapiens, UniProt Q13546) | 92%
Serine/threonine-protein kinase N1 (PKN1, Homo sapiens, UniProt Q16512) | 85%
Serine/threonine-protein kinase BRSK2 (BRSK2, Homo sapiens, UniProt Q8IWQ3) | 72%
Fibroblast growth factor receptor 4 (FGFR4, Homo sapiens, UniProt P22455) | 100%

Mixed results
Structure (SMILES) | test | test system | conditions | measurement | value
CC(C)n1cnc(-c2ccc(F)cc2)c1-c1ncc(C(=O)Nc2ccc(N3CCN(C)CC3)cc2)[nH]1 | phase 2a clinical trial | patients with idiopathic pulmonary fibrosis | 60 mg once daily | patients with ALP increased TEAE | 0%

Repeated from above (sample 3):
target | remaining binding
Serine/threonine-protein kinase BRSK2 (BRSK2, Homo sapiens, UniProt Q8IWQ3) | 72%
Phosphatidylinositol 4,5-bisphosphate 3-kinase catalytic subunit beta isoform (PIK3CB, Homo sapiens, UniProt P42338) | 87%
Serine/threonine-protein kinase N1 (PKN1, Homo sapiens, UniProt Q16512) | 85%
Receptor-interacting serine/threonine-protein kinase 1 (RIPK1, Homo sapiens, UniProt Q13546) | 92%
